Assay results gathered from unrelated publications.
Protocols differ between the studies behind these lines.

With `DAPT` the MIC was 0.7 µg/mL (Bacillus subtilis; ATCC 6633).
Under “log2 fold change”, `human NudC` is recorded as 0.24 (CYB5R4 knockout human cells; PP6 interaction, 3xFLAG-PP6C IP-MS; concentration not given; baseline: CYB5R4 KO over parental).
With `TCATCCGCTG (PNA, CPP-conjugated)` the MIC was 2.5 µM (Salmonella enterica serovar Typhimurium; peptide, SL1344; 18 h).
With `colistin` the MIC was 0.78 µM (Klebsiella pneumoniae; 10145, RPMI 1640 10% FBS; 18 to 24 h, 37 °C).
Under “log2 fold change”, `human EEF1G` is recorded as 0.33 (PP6C (human); co-immunoprecipitation, IP-MS; CYB5R4 knockout cells; concentration not given; baseline: CYB5R4 knockout over parental).
With `gentamicin sulfate` the MIC was 1 µM (Staphylococcus aureus; ATCC 35923, susceptible; 18 h, 37 °C, dark).
With `azithromycin` the MIC was 10 µM (Klebsiella pneumoniae; broth microdilution; ATCC 700603; without peptide).
`benzalkonium chloride` gave an MIC of 4 µM (Staphylococcus aureus; USA300 CA-MRSA; tested up to 1 µM).
The MIC of `colistin` is reported as 0.5 µg/mL (Pseudomonas aeruginosa; PER-producing clinical isolate R16-49).
For `colistin`, the MIC was no more than 1 µg/mL (Pseudomonas aeruginosa; clinical isolate RKI 67/14).
With `GCCATGCTTT (PNA, CPP-conjugated)` the MIC was 10 µM (Salmonella enterica serovar Typhimurium; peptide, SL1344; 18 h).

Excerpt of the above:
With `DAPT` the MIC was 0.7 µg/mL (Bacillus subtilis; ATCC 6633).
Under “log2 fold change”, `human NudC` is recorded as 0.24 (CYB5R4 knockout human cells; PP6 interaction, 3xFLAG-PP6C IP-MS; concentration not given; baseline: CYB5R4 KO over parental).
